# Results pooled from the literature.
# Lines come from different studies, so protocols differ. “And” joins repeats or separate records; there may be more than shown. ± marks the error that the study gave.
Structure (SMILES),tested on,assay,test system,conditions,scale,measurement,result
Cl.OCCNc1nc(Nc2ccccc2)nc2ccccc12,Renilla luciferase reporter mRNA,"in vitro translation, inhibitor",Trypanosoma cruzi translation extract,5 µM,,inhibition,21.8%
c1coc(-c2n[nH]cc2-c2ccnc3ccccc23)c1,KSP1 (Candida albicans),"kinase binding, MIB/MS competition",Candida albicans lysate,1 µM,baseline: DMSO,log2 fold change,-0.17
O=C(O)c1ccc2c(c1)nc(Nc1cccc(F)c1)c1ccncc12,DYRK and HIPK kinases,"enzyme activity, inhibitor, eight-kinase enzymatic panel",,"1 µM, percent of control below 10",,number of kinases inhibited,5
CCNC(=O)/C=C/c1cccc(Br)c1,endogenous leucine transporters hamster,"inhibitor, L-[14C]leucine uptake",CHO-BC cells,"30 µM, sodium-free",,L-leucine uptake,34 nmol/6 min/mg protein and 35.8 nmol/6 min/mg protein and 35.5 nmol/6 min/mg protein
CN(C)c1nccc(-c2cnc3ncccn23)n1,FLT3 ITD human,KINOMEscan binding,,1000 nM,baseline: control,remaining binding,100%
O=C(O)c1ccc2c(c1)nc(Nc1cccc(F)c1)c1ncncc12,DYRK and HIPK kinases,"enzyme activity, inhibitor, eight-kinase enzymatic panel",,"1 µM, percent of control below 10",,number of kinases inhibited,5
COc1cccc(Nc2nc(NCC3CCCO3)c3ccccc3n2)c1.Cl (centres unmarked),Renilla luciferase reporter mRNA,"in vitro translation, inhibitor",Trypanosoma cruzi translation extract,5 µM,,inhibition,16%
O=C(O)c1ccc2c(c1)nc(NCCc1cccc(F)c1)c1ccncc12,DYRK and HIPK kinases,"enzyme activity, inhibitor, eight-kinase enzymatic panel",,"1 µM, percent of control below 10",,number of kinases inhibited,5
CN1C[C@H](COc2nccc3c(NCc4ccco4)cc(Cl)nc23)OC1=O,alpha-galactosidase A (GLA) human,activator,Fabry disease iPSC-derived cardiomyocytes,1 µM,baseline: wild type,enzyme activity,9.2%
Cc1cc2c(cc1N1C(=O)c3cccc4c(Cl)ccc(c34)C1=O)n(C)c(=O)n2C,SMARCA2,,,10 µM,,delta Tm,0.5 K
O=C(O)c1ccc2c(c1)nc(NCCc1cccc(F)c1)c1ncncc12,DYRK and HIPK kinases,"enzyme activity, inhibitor, eight-kinase enzymatic panel",,"1 µM, percent of control below 10",,number of kinases inhibited,1
Cc1cc(O)c2c(c1)C(=O)c1cccc(O)c1C2=O,HK-2 co-cultured with HepaRG,MTT,,"266.67 µM, 48 h",baseline: untreated control,viability,23.6 ± 8.53%
CC(C)C[C@H](NC(=O)C[C@H](O)[C@H](CC(C)C)NC(=O)[C@H](Cc1c[nH]cn1)NC(=O)CNC(=O)[C@@H](NC(=O)[C@H](C)NC(=O)[C@H](Cc1c[nH]c2ccccc12)NC(=O)[C@H](CCC(N)=O)NC(=O)[C@@H](Cc1ccccc1)NC(=O)COCCOCCNC(=O)CCC(C(=O)O)N1CCN(CC(=O)O)CCN(CC(=O)O)CCN(CC(=O)O)CC1)C(C)C)C(N)=O (some centres unmarked) [lutetium-177 labelled],,,"female BALB/c nu/nu mice, brain","intravenous, 100 pmol, 24 h, together with: PA 300 µg",,tissue uptake,0.003 ± 0.001 %ID/g
O=C(O)c1ccc2c(c1)nc(Nc1ccc(F)c(Cl)c1)c1ncncc12,DYRK and HIPK kinases,"enzyme activity, inhibitor, eight-kinase enzymatic panel",,"1 µM, percent of control below 10",,number of kinases inhibited,5
N[C@@H]1CCN(c2nccc(-c3cnn4ncccc34)n2)C1,FLT3 ITD human,KINOMEscan binding,,1000 nM,baseline: control,remaining binding,98%
O=C(O)Cc1cccc2ccccc12,TMK1 with ABL1/ABL2 (Arabidopsis thaliana),co-immunoprecipitation,"Arabidopsis thaliana, TMK1-GFP seedlings",5 µM,,time to interaction,≤ 1 min
C[n+]1cccc2cc(C=NNC(=O)c3ccc4ccc5ccc(C(=O)NN=Cc6ccc7c(ccc[n+]7C)c6)nc5c4n3)ccc21.[I-].[I-],myc22 MYC G4-DNA parallel,FRET melting,,"1 µM, K1 buffer, DNA 0.2 µM, together with: ds26 10 µM",,ΔTm,27.8 ± 2.7 °C
Oc1ccccc1-c1n[nH]cc1-c1ccnc2ccccc12,IRE1 (Candida albicans),"kinase binding, MIB/MS competition",Candida albicans lysate,1 µM,baseline: DMSO,log2 fold change,-0.01
C[C@H](CCC(C)(C)O)[C@H]1CC[C@H]2[C@@H]3CC=C4C[C@@](C)(O)CC[C@]4(C)[C@H]3CC[C@]12C,GluN1/GluN2C NMDA receptor (human),"glutamate-evoked current, two-electrode voltage clamp",,"10 µM, holding potential -80 mV, together with: glutamate and glycine",baseline: glutamate response without compound,Emax,131%
Cc1cnn2ncc(-c3ccnc(N(C)C)n3)c2c1,FLT3 ITD human,KINOMEscan binding,,1000 nM,baseline: control,remaining binding,82%
Cn1cc(-c2ccc(-c3cncc(Cl)c3N3CCC4(CCNC4=O)CC3)cc2)cn1,COLO 205,"gene expression, microarray, item: PRDM1 mRNA",,"concentration not given, 2 h",baseline: untreated cells,log2 fold change,3.57
Cl.Fc1ccc(Nc2nc(NCC3CCCO3)c3ccccc3n2)cc1 (centres unmarked),Renilla luciferase reporter mRNA,"in vitro translation, inhibitor",Trypanosoma cruzi translation extract,10 µM,,inhibition,2.7%
COc1cc(/C=C/C(=O)CC(=O)/C=C/c2ccc(O)c(OC)c2)ccc1O,17β-HSD (human),androstenedione formation,LS180,100 µM,,inhibition,inhibited
C=CC1=C(C)c2cc3[nH]c(cc4nc(cc5[nH]c(cc1n2)c(C)c5CCC(=O)O)C(CCC(=O)O)=C4C)c(C)c3C=C,thioredoxin reductase (human),"cellular enzyme activity, insulin end-point assay in lysates",A549,"10 µM, 24 h",,inhibition,~90%
CN(CCCC(F)(F)F)c1nccc(-c2cnn3ncccc23)n1,FLT3 ITD human,KINOMEscan binding,,1000 nM,baseline: control,remaining binding,100%
O=C(NN=Cc1ccc(C[n+]2ccccc2)cc1)c1ccc2ccc3ccc(C(=O)NN=Cc4ccc(C[n+]5ccccc5)cc4)nc3c2n1.[Br-].[Br-],MYC parallel G4 DNA,FRET melting,,"1 µM, DNA 0.2 µM, together with: duplex DNA competitor 10 µM",,ΔTm,21.7 ± 0.3 °C
O=C(O)c1ccc2c(c1)nc(Nc1ccc(Cl)cc1)c1ccncc12,DYRK and HIPK kinases,"enzyme activity, inhibitor, eight-kinase enzymatic panel",,"1 µM, percent of control below 10",,number of kinases inhibited,5
Fc1ccccc1Nc1nc(NCC2CCCO2)c2ccccc2n1 (centres unmarked),Renilla luciferase reporter mRNA,"in vitro translation, inhibitor",Trypanosoma cruzi translation extract,20 µM,,inhibition,51.4%
Cc1ccc(C(=O)NCc2ccsc2)cc1C#Cc1cn(C(C)C)c2ncnc(N)c12,casein kinase 1 (yeast),enzyme activity,,"1 µM, together with: ATP at Km",,remaining activity,50%
COc1cccc(Nc2nc3cc(C(=O)O)ccc3c3cnccc23)c1,DYRK and HIPK kinases,"enzyme activity, inhibitor, eight-kinase enzymatic panel",,"1 µM, percent of control below 10",,number of kinases inhibited,5
COc1ccc(F)cc1C(=O)NCc1ccc(-c2nn([C@@H](C)C(F)(F)F)c(N)c2C(N)=O)cc1,PLCγ2 human,"PLCγ2 phosphorylation, item: PLCγ2 Y1217",Rec1,,,IC50,51.7 nM
CC(C)c1noc2ncc(C(=O)c3ccccc3O)cc12,human Kv7.1,"ion current, whole-cell patch-clamp",,10 µM,,inhibition,16.4%
O=C(Nc1nc2cccc(-c3ccc(CN4CCS(=O)(=O)CC4)cc3)n2n1)C1CC1,,item: hypotension,human rheumatoid arthritis patients,"oral, 30 mg once daily, 4 weeks, regardless of relatedness",,treatment-emergent adverse events,0%
CN(C)c1ncc(F)c(-c2cnn3ncccc23)n1,FLT3 ITD human,KINOMEscan binding,,1000 nM,baseline: control,remaining binding,100%
O=C(O)c1ccc2c(c1)nc(NCc1ccccc1)c1ccncc12,DYRK and HIPK kinases,"enzyme activity, inhibitor, eight-kinase enzymatic panel",,"1 µM, percent of control below 10",,number of kinases inhibited,0
C[N+](C)(C)CC(=O)O,SAR11_0797 Candidatus Pelagibacter ubique,differential scanning fluorimetry,,"concentration not given, unit not given",higher = stronger binding,ΔTm,4.27
CC(C)n1ncc2c(C(=O)NCC3(C)CNC3)cc(C3CC3)nc21,Enterovirus D68,viral replication,"RD, US/MO/14-18947",0.1 µM,baseline: untreated,plaque area,88.8% and 90.6%
CC(Nc1nc(N2CCCC2)nc2ccccc12)c1ccccc1 (centres unmarked),importin α/β1,"cMyc nuclear import, high content imaging",HeLa Kyoto reporter,"0.05 µM, 2 h",,cells with nuclear reporter,86.9%
CC[C@H](C)[C@H](NC(=O)[C@H](CC(=O)O)NC(=O)[C@H](CCC(=O)O)NC(=O)[C@@H](N)CC(N)=O)C(=O)N[C@@H](CC(=O)O)C(=O)N[C@@H](CCC(N)=O)C(=O)N[C@@H](CCSC)C(=O)N[C@@H](Cc1ccccc1)C(=O)N[C@@H](CO)C(=O)N[C@H](C(=O)N[C@@H](CC(C)C)C(=O)N[C@@H](CC(C)C)C(=O)NCC(=O)N[C@@H](CCC(=O)O)C(=O)N[C@@H](CCSC)C(=O)N[C@@H](CC(=O)O)C(=O)N[C@@H](CC(C)C)C(=O)N[C@@H](CC(C)C)C(=O)N[C@H](C(=O)N[C@@H](CCC(N)=O)C(=O)N[C@@H](CO)C(=O)O)[C@@H](C)O)[C@@H](C)O,talin head domain,"inhibitor, PAC-1 flow cytometry",CHO-A5 expressing GFP-talin head domain,"100 µM, 30 min, 37 °C",,integrin αIIbβ3 activation,no inhibition
O=C(O)c1cc(O)c2c(c1)C(=O)c1cccc(O)c1C2=O,HK-2 co-cultured with HepaRG,MTT,,"266.67 µM, 48 h",baseline: untreated control,viability,20 ± 11.5%
C=CC(=O)N1CCC(COCC(=O)N2CCN(c3nc(-c4cnc(N)nc4C(F)F)nc(N4CCOC[C@@H]4C)n3)CC2)CC1,FLT3 ITD D835V,KINOMEscan,,1 µM,,remaining binding,100%

# Repeated from above:
Structure (SMILES),tested on,assay,test system,conditions,scale,measurement,result
CN1C[C@H](COc2nccc3c(NCc4ccco4)cc(Cl)nc23)OC1=O,alpha-galactosidase A (GLA) human,activator,Fabry disease iPSC-derived cardiomyocytes,1 µM,baseline: wild type,enzyme activity,9.2%
Cc1cc2c(cc1N1C(=O)c3cccc4c(Cl)ccc(c34)C1=O)n(C)c(=O)n2C,SMARCA2,,,10 µM,,delta Tm,0.5 K
O=C(O)c1ccc2c(c1)nc(NCCc1cccc(F)c1)c1ncncc12,DYRK and HIPK kinases,"enzyme activity, inhibitor, eight-kinase enzymatic panel",,"1 µM, percent of control below 10",,number of kinases inhibited,1
